Assay results pooled from the literature.
Several values in a cell are separate wells, animals, samples, runs or records. Numbers after ± are the reported error.

`Cn1cc(-c2ccc(-c3cncc(Cl)c3N3CCC4(CCNC4=O)CC3)cc2)cn1` — result for “log2 fold change”: 2.08 (COLO 205; gene expression, microarray, item: FLOT1 mRNA; concentration not given, 2 h; reference: untreated cells).
`COc1cc(-c2oc3cc(O)cc(O)c3c(=O)c2O)ccc1O` has an IL-1β level of 5.4 ± 2.1 fold change (coculture, Caco-2, THP-1; ELISA; 250 ng/mL, 8 h, together with: LPS, IFNγ, ATP; reference: untreated control).
`CC(C)NCC(O)c1ccc(O)c(O)c1` (centres unmarked) has a sarcomere length of 1.61 µm (mouse ventricular cardiomyocytes; dose not given, 0.128 s).
For `CCOP(=O)(Cc1ccc(-c2nc3ccccc3s2)cc1)OCC`, the EC50 was 4.33 µM (HEK293T ATF4-FLuc reporter; ATF4 reporter gene, activator, luciferase reporter).
For `CNC(=O)c1cc(Oc2ccc(NC(=O)Nc3ccc(Cl)c(C(F)(F)F)c3)c(F)c2)ccn1`, the inhibition was 15.1% (THP-1; pyroptotic LDH release; 2 µM, 40 min, together with: LPS then nigericin).
`O=C(/C=C/c1ccc(CN(CCO)CCc2c[nH]c3ccccc23)cc1)NO` has an EC50 of 0.186 µM (HEK293T ATF4-FLuc reporter; ATF4 reporter gene, activator, luciferase reporter).
`CC=CC(=O)N(CC)c1ccccc1C` (mixture of isomers) gave an inhibition of -1.22% (THP-1; pyroptotic LDH release; 2 µM, 40 min, together with: LPS then nigericin).
`O=C(COP(=O)(O)O)[C@@H](O)[C@H](O)[C@H](O)COP(=O)(O)O` gave a cell proliferation of 154% and 136% and 156% (HepG2 PGAM1 knockout; CCK-8; concentration not given; reference: untreated wild type).
The IL-1β level of `O=C(O)CCc1cccc(O)c1` is reported as 10.7 ± 1.9 fold change (coculture, Caco-2, THP-1; ELISA; 250 ng/mL, 8 h, together with: LPS, IFNγ, ATP; reference: untreated control).
The EC50 of `CC(C)c1nc(CN(C)C(=O)N[C@@H](CCN2CCOCC2)C(=O)N[C@H](CC[C@H](Cc2ccccc2)NC(=O)OCc2cncs2)Cc2ccccc2)cs1` is reported as > 9.96 µM (HEK293T ATF4-FLuc reporter; ATF4 reporter gene, activator, luciferase reporter).
With `CNC(=O)c1c(-c2ccc(F)cc2)oc2cc(N(CCO)S(C)(=O)=O)c(C3CC3)cc12` the inhibition was 10.1% (THP-1; pyroptotic LDH release; 2 µM, 40 min, together with: LPS then nigericin).
The viability of `COc1c(O)cc2c(c1O)C(=O)c1c(cc(C)c(O)c1OC)C2=O` is reported as 73.6 ± 10.4% (HK-2 co-cultured with HepaRG; MTT; 266.67 µM, 24 h; reference: untreated control).
For `C=CCN1CCN(CC(C)(C)COC(=O)C2=C(C)NC(C)=C(C(=O)OC)C2c2cccc([N+](=O)[O-])c2)CC1` (centres unmarked), the EC50 was > 9.96 µM (HEK293T ATF4-FLuc reporter; ATF4 reporter gene, activator, luciferase reporter).
With `CC/C(=N\NC(=O)NCc1cccc(O)c1)c1ccc(O)c(C)c1O` the protein level was 0.25 ± 0.09 (SK-OV-3; Western blot, item: phospho-YAP; 10 µM, 6 h, 3D gellan gum culture, unit not given; reference: total YAP).
The growth percent of `CCCCN1CCN(c2ccc3[nH]c(-c4ccc5[nH]c(-c6ccc(OCC)cc6)nc5c4)nc3c2)CC1` is reported as 36.9% (RXF 393; SRB; 10 µM, 48 h).
`O=C(Nc1nnc2[nH]c(=S)[nH]c(-c3ccc(Cl)cc3)c1-2)c1ccccc1` gave a cell growth of 90.9% (RXF 393; SRB; 10 µM, NCI60 single-dose screen; reference: untreated).
The EC50 of `CCn1cc(-c2cc(Cn3ccoc3=N)cc3c2CCN([C@@H](C)c2cc(OC)ccn2)C3=O)c(C(F)(F)F)n1` is reported as 0.268 µM (SNU119; cell growth; 120 h).
For `COc1cc(/C=C/C(=O)N2CCC=CC2=O)cc(OC)c1OC`, the mRNA level was 1080 ± 47.7% (MDA-MB-468; quantitative RT-PCR, item: NOS2; 30 µM, 8 h; reference: untreated cells).
With `CC(C)(C)NC(=O)c1cncn1C1CCN(c2ccc(-c3nnc(C(F)(F)F)o3)cn2)CC1` the mRNA level was 2.5 (HDMEC; qPCR, item: L-GILZ; concentration not given, unit not given; reference: DMSO).
With `O=C(O)Cc1ccc(O)cc1` the IL-1β level was 4.8 ± 1 fold change (coculture, Caco-2, THP-1; ELISA; 250 ng/mL, 8 h, together with: LPS, IFNγ, ATP; reference: untreated control).
For `COC(=O)CC1CCN(C(=O)c2cc(-c3cccs3)nn2-c2ccccc2)CC1`, the inhibition was 45.2 ± 16.4% (human monocytes; phagocytosis of anti-D RBCs; 5 µM, lab-synthesized sample).
`Cc1c(C)c2c(c(C)c1O)CCC(C)(COc1ccc(CC3SC(=O)NC3=O)cc1)O2` (centres unmarked) — result for “point of departure”: 14.1 µM (HepG2; MTT, item: MTT response; 24 h, distribution mode 2).
The EC50 of `CCn1cc(-c2cc(Cn3ccnc3)cc3c2CCN([C@H](c2cc(OC)ccn2)C2CC2)C3=O)c(C(F)(F)F)n1` is reported as 23.6 µM (HCC38; cell growth, inhibitor; 120 h).
`O=C(O)CCc1ccc(O)cc1` has an IL-1β level of 7.6 ± 1.1 fold change (coculture, Caco-2, THP-1; ELISA; 50 ng/mL, 8 h, together with: LPS, IFNγ, ATP; reference: untreated control).
With `CN(Cc1ccc(S(=O)(=O)N2CCOCC2)cc1)c1ccc2c3c(cccc13)C(=N)N2` the EC50 was 1.94 µM (HEK293T ATF4-FLuc reporter; ATF4 reporter gene, activator, luciferase reporter).
`COc1ccc(OC)c(-c2nc3ccc(-c4nc5ccc(N6CCN(C)CC6)cc5[nH]4)cc3[nH]2)c1` has a growth percent of 69.8% (RXF 393; SRB; 10 µM, 48 h).
`OB1OCc2cc(F)ccc21` has an inhibition of -0.648% (THP-1; pyroptotic LDH release; 2 µM, 40 min, together with: LPS then nigericin).
For `Cn1cc(Nc2nccc(-c3ccc4c(c3)CN(C3COC3)CC[C@H]4NC(=O)c3cn(C(C)(C)C)nn3)n2)cn1`, “pathway activation z-score” read 1.16 (mouse splenic B cells; item: IL-15 signalling; 30 mg/kg, IgD-activated in vivo; reference: vehicle, direction not given).
`CSc1cc(Oc2ccnc3[nH]c(=O)cnc23)ccc1NC(=O)Nc1cc(C(C)(C)C)nn1-c1ccccc1`: “phospho/total Akt ratio” 0.35 (patient-derived cell clone B (sample A); reverse phase protein array, item: Akt pSer473; human; 1 µM, 4 h; reference: DMSO).
With `C=CC1=C(C)c2cc3[n-]c(cc4nc(cc5[n-]c(cc1n2)c(C)c5C=C)C(C)=C4CCC(=O)O)c(CCC(=O)O)c3C.[Zn+2]` the fold change was 1.6 (SH-SY5Y; RNA-seq, item: THBS1 mRNA; 5 µM, 5 h; reference: untreated cells).
For `O=C(O)CCc1ccc(O)c(O)c1`, the kynurenine level was 113 ± 5.4 % change (Caco-2/THP-1 co-culture; concentration not given, together with: LPS 1000 ng/mL).
`CC(C)(c1ccc(O)cc1)c1ccc(O)cc1` — result for “G1 phase cells”: 71.8 ± 4.21% (HepG2 spheroids; Hoechst flow cytometry; 0.1 µM, 24 h).
For `CC(C)OC(=O)CCC/C=C\C[C@@H]1[C@@H](/C=C/[C@@H](O)COc2cccc(C(F)(F)F)c2)[C@H](O)C[C@@H]1O`, the EC50 was 9.33 µM (HEK293T ATF4-FLuc reporter; ATF4 reporter gene, activator, luciferase reporter).
Under “MyBP-C level change”, `Nc1nccs1` is recorded as 3.87 SD (human iPSC cardiomyocytes; plate-normalised; concentration not given, hit retest; reference: vehicle controls, SDs below control).
For `COc1ccc(NC(=S)N/N=C/c2cccc3cc4ccccc4nc23)cc1`, “late apoptotic cells” read 11.7% (HeLa; annexin V/PI; concentration not given, 48 h, dosed at IC25).
`CCCCc1nc(Cl)c(CO)n1Cc1ccc(-c2ccccc2-c2nn[nH]n2)cc1` — result for “log2 fold change”: 2.79 (human PBMC; RNA-seq, item: GJB2 mRNA; 10 µg/mL, 24 h; reference: untreated control).
`C=Cc1c2[n-]c(c1C)/C=c1\[n-]/c(c(C)c1C=C)=C\c1[n-]c(c(CCC(=O)O)c1C)/C=c1\[n-]c(c(C)c1CCC(=O)O)=C2.[Sn+4]` gave a fold change of 2.62 (SH-SY5Y; RNA-seq, item: DKK2 mRNA; 5 µM, 5 h; reference: untreated cells).
`C[C@@H](Oc1cc(-n2cnc3ccc(CN4CCN(C)CC4)cc32)sc1C(N)=O)c1ccccc1C(F)(F)F` has an EC50 of 7.42 µM (HEK293T ATF4-FLuc reporter; ATF4 reporter gene, activator, luciferase reporter).
`CC[C@@H](N)C(=O)O` has an inhibition of 18.7% (THP-1; pyroptotic LDH release; 2 µM, 40 min, together with: LPS then nigericin).
Under “surface marker level”, `Nc1cccc2c1C(=O)N(C1CCC(=O)NC1=O)C2=O` (centres unmarked) is recorded as 227% (RPMI-8226; flow cytometry, item: CD108; concentration not given; reference: comparator compound alone).
`COc1cc2c(c(O)c1OC)C(=O)c1c(cc(C)c(O[C@@H]3O[C@H](CO)[C@@H](O)[C@H](O)[C@H]3O)c1OC)C2=O` has a cell viability of 74.2 ± 6.29% (HK-2 co-cultured with HepaRG; MTT; 133.33 µM, 24 h; reference: untreated control).
`Cc1ccc(CNC(=O)Cn2cc(CSc3nc4ccccc4[nH]3)nn2)cc1` gave a viability of 18.6% (MDA-MB-231; MTT; 15.6 ppm).
`C[C@H](CS)C(=O)N1CCC[C@H]1C(=O)O`: “Nrf2 protein level” 19.8 % restoration (HUVEC; western blot; 10, 100, 1 µM, together with: angiotensin II).
`COc1cc(C(C)=O)cc(OC)c1O` has an inhibition of -1.1% (THP-1; pyroptotic LDH release; 2 µM, 40 min, together with: LPS then nigericin).
With `C=CC(=O)Nc1cc2c(Nc3ccc(OCc4ccccn4)c(Cl)c3)ncnc2cc1OCCN1CCOCC1` the selectivity ratio was 1.6 (NCI-H2073 EGFR SVD knock-in; cell proliferation, CellTiter-Glo; reference: knock-in over parental NCI-H2073).
`O=P(O)(O)O[C@H]1[C@H](OP(=O)(O)O)[C@@H](OP(=O)(O)O)[C@H](OP(=O)(O)O)[C@@H](OP(=O)(O)O)[C@H]1OP(=O)(O)O` has an inhibition of -19.3% (THP-1; pyroptotic LDH release; 2 µM, 40 min, together with: LPS then nigericin).
The viability of `Cc1cccc(-c2[nH]c(CNc3ccccc3F)nc2-c2ccc3ncnn3c2)n1` is reported as 12% (bone marrow CD138+ myeloma cells; XTT; 1.4 µM, phenol red-free RPMI).
`COc1cc(O)c2c(=O)c(O)c(-c3ccc(O)c(O)c3)oc2c1`: “transepithelial electrical resistance” 74.1 ± 1.2% (Caco-2/THP-1 co-culture; TEER; concentration not given, together with: LPS 50 ng/mL; reference: control).
For `O[C@@H]1CO[C@H]2[C@@H]1OC[C@@H]2O`, the inhibition was -8.01% (THP-1; pyroptotic LDH release; 2 µM, 40 min, together with: LPS then nigericin).
`CCc1cnc(N2CCC(c3nc(COc4ccc(-n5cnnn5)cc4)cs3)CC2)nc1` — result for “normalized enrichment score”: 1.45 (HEK-293T; RNA-seq GSEA, item: HALLMARK_HEME_METABOLISM; concentration not given; direction not given).
The cell growth of `CCOC(=O)CSc1nc(-c2ccc(Cl)cc2)c2c(NC(=O)c3ccccc3)nnc-2[nH]1` is reported as 102% (OVCAR-8; SRB; 10 µM, NCI60 single-dose screen; reference: untreated).
The EC50 of `COc1cnc2cccc(N3CCc4c(cc(Cn5ccnc5C)cc4-c4cn(C)nc4C(F)(F)F)C3=O)c2c1` is reported as > 30 µM (HCC1438; cell growth; 120 h).
With `O=C(/C=C/C=C/C=C/C1CCCCC1)NC1=C[C@@](O)(/C=C/C=C/C=C/C(=O)NC2=C(O)CCC2=O)[C@@H]2O[C@@H]2C1=O` the GI50 was 16.2 µM (SNU-423; cell growth, CellTiter-Glo; 78 h).
